Published values gathered from unrelated publications.
Each numbered part is a random draw from the data of one study; scales do not carry over between parts.

Sample 1 — method: protein-binding microarray; molecule type: double-stranded DNA, one strand shown; medium: in vitro; concentration: 940 nM top; notes: 60-bp whole probe; together with: salmon DNA 0.4 mg/ml; baseline: random background probes; direction: higher = stronger binding; shared flanks, not repeated: GCCTAGCAC … GTCTTGATTCGCTTGACGCTGCTG
Target: Interferon regulatory factor 5, full length, phosphomimetic (IRF5, Homo sapiens, UniProt Q13568-2, residues 1-514, S451D/S453D/S456D/S462D)
`TTAATGTGTTCTTGGATTCGGTGCTAG`: “fitted relative affinity” -0.107 z-score.
`TTAGGTTTCGGCTATCGGTTAGTGCTA`: “fitted relative affinity” 10.2 z-score.
`GACGAGCTCAGACTGGAGACGTGCTAG` — result for “fitted relative affinity”: -0.749 z-score.
`TTAGGACTGGCTTTCGGTTAGTGCTAG`: “fitted relative affinity” 2 z-score.
`ATAGGTCTCGGACTGGGTTAGTGCTAG` — result for “fitted relative affinity”: 1.19 z-score.
`TGTGGGCGTAGGCCCGGAGCGTGCTAG`: “fitted relative affinity” -1.06 z-score.

Sample 2 — method: competition protein-binding microarray; molecule type: double-stranded DNA, one strand shown; medium: in vitro; concentration: 2 µM; together with: Cbf1 competitor, 0.05 µM; direction: higher = stronger binding
Target: Phosphate system positive regulatory protein PHO4, full length, GST-tagged (PHO4, Saccharomyces cerevisiae, UniProt P07270, residues 1-312)
Notes: whole 60-bp probe, lowest competitor level
Target sequence (chain): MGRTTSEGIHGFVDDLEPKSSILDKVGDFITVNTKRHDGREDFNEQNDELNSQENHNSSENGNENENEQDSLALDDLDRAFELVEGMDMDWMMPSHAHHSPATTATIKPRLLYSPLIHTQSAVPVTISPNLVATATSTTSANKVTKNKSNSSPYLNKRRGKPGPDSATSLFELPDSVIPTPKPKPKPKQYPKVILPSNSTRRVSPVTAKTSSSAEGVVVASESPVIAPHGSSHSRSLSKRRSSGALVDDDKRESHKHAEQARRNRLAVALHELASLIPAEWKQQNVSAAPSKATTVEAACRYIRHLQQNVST
For `TATGGTAACCTCTGCCATGCTGTCTCTGTTCCTTGAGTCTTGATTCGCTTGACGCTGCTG`, the fluorescence intensity was 5140 a.u.
`TGCGCAACAACTTGTTGGGTGGGTGTATGTCTAGAAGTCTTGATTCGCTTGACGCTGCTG` gave a fluorescence intensity of 4720 a.u.
`TTATCATATACGGTGTTAGAAGATGACGCAAATGATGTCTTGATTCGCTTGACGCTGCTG` gave a fluorescence intensity of 4730 a.u.
`TGCGCAACAACTTGACACGTGTTTTTATGTCTAGAAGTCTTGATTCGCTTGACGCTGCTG` has a fluorescence intensity of 20100 a.u.
`CATACCCAACCTTGTCACTGCACTTAAGATATTTGTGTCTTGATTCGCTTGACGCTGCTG` gave a fluorescence intensity of 4080 a.u.
The fluorescence intensity of `TTGCTTTGCAGCGACCACGTGGAACACTTGTCTAGTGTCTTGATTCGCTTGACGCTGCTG` is reported as 19400 a.u.
`GATTTTTTCAAATGGCACATGCTTCGGAAAAATGATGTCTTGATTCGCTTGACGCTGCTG` gave a fluorescence intensity of 11900 a.u.

Sample 3 — method: aptamer microarray, sandwich; molecule type: DNA with 2'F-ANA; medium: in vitro; concentration: 200 nM; together with: Cy3 exosite-II aptamer, 400 nM; direction: higher = stronger binding; sequence: GGTTGGTGTGGTTGG
Target: Prothrombin, mature alpha-thrombin (F2, Homo sapiens, UniProt P00734)
Notes: whole 15-mer aptamer, many near background
`2'F-ANA at 1 2 4 5 7 11 12 14 15`: “mean fluorescence intensity” 48.8 a.u.
`2'F-ANA at 1 2 4 5 7 10 11 12 13` — result for “mean fluorescence intensity”: 45.7 a.u.
Under “mean fluorescence intensity”, `2'F-ANA at 1 2 6 8 9 10 12 13` is recorded as 88 a.u.
Under “mean fluorescence intensity”, `2'F-ANA at 1 2 7 8 9 11 12 13` is recorded as 303 a.u.
`2'F-ANA at 2 7 9 11 12 14 15` — result for “mean fluorescence intensity”: 182 a.u.
For `2'F-ANA at 1 2 3 7 15`, “mean fluorescence intensity” read 302 a.u.
Under “mean fluorescence intensity”, `2'F-ANA at 1 3 4 7 9 10 12 13` is recorded as 103 a.u.
Under “mean fluorescence intensity”, `2'F-ANA at 4 5 6 9 13 14` is recorded as 40.4 a.u.
`2'F-ANA at 1 2 3 5 7 10 12 13`: “mean fluorescence intensity” 48.8 a.u.
For `2'F-ANA at 3 4 5 6 8 9 13 15`, “mean fluorescence intensity” read 72.7 a.u.

Mixed results
The fold induction of `PhoQ, residues 284 288 289 292 302 303 NLAAMI` is reported as 1.17 (PhoP, residues 12 14 15 18 19 LHHVQ (Escherichia coli, UniProt P23836); Sort-seq, measured: YFP reporter; E. coli; PhoQ-PhoP variant library, together with: 10 µM Mg2+; baseline: high Mg2+ state, higher = stronger signaling).

A few entries again (sample 3):
`2'F-ANA at 1 2 4 5 7 11 12 14 15`: “mean fluorescence intensity” 48.8 a.u.
`2'F-ANA at 1 2 4 5 7 10 11 12 13` — result for “mean fluorescence intensity”: 45.7 a.u.
Under “mean fluorescence intensity”, `2'F-ANA at 1 2 6 8 9 10 12 13` is recorded as 88 a.u.
